# Results pooled from the literature.
# Lines come from different studies, so protocols differ. Numbers after ± are the reported error.
Compound,cell line,test,setting,IC50 [µM]
CC(=O)Oc1ccccc1C(=O)[O][Pt]([NH2])([NH2])([Cl])([Cl])[O]C(=O)CCCc1ccccc1,PSN1 3D spheroids,,,7.75 ± 0.01
COc1cc(NC(=O)c2ccc(F)cc2)ccc1C(=O)Nc1ccc(Cl)c(-c2nc3ccccc3[nH]2)c1,NIH3T3-Gli-Luc,"Hedgehog signalling, Gli-luciferase reporter",with: Shh-conditioned medium,0.34 ± 0.07
C[C@]12CC/C(=N\OCCN3CCCC3)C=C1CCC1C2CC[C@]2(C)/C(=C/c3ccccn3)CCC12 (stereo partly drawn),G-361,"cell growth or viability, resazurin",72 h,8.9
N=C(N)NCCC[C@H](N)C(=O)N[C@H](CC(=O)N[C@@H](Cc1ccc(O)cc1)C(=O)O)c1cccc2ccccc12,BT-474 (HER2-overexpressing),,,> 50
CCCCNC(=O)O[C@H]1[C@H](C)O[C@@H](O[C@H]2[C@H](N(C)C)[C@@H](O)[C@H](O[C@H]3[C@@H](CC=O)C[C@@H](C)[C@@H](O[C@H]4CC[C@H](N(C)C)[C@@H](C)O4)/C=C/C=C/C[C@@H](C)OC(=O)C[C@@H](O)[C@@H]3OC)O[C@@H]2C)C[C@@]1(C)O,HGC-27,"cell growth or viability, CCK-8",72 h,> 50
O=c1sn(Cc2ccccc2)c(=O)n1C1CC1,A 172,cell growth or viability,72 h,22.3
CC(C)N(C[C@H]1O[C@@H](n2cnc3c(N)ncnc32)[C@H](O)[C@@H]1O)C1CC2CN(Cc3ccc(S(C)(=O)=O)cc3)CC2C1 (stereo partly drawn),H460 R231Q,"cell proliferation, CCK-8",72 h,47.7 ± 1.72
Cn1cc(-c2cc(N3CCCS3(=O)=O)ccc2N[C@H]2CC[C@H](C)CC2)c2cc[nH]c2c1=O,Light II cells,"GLI reporter gene, inhibitor",Hedgehog pathway,0.00012 ± 0.0001
Cc1ccc(C(C)C)c(OCc2ccc(C(=O)N/N=C/c3cccc(O)c3O)cc2)c1,LDR,"cell viability, MTS",4 days,1.5
CCC(CC)CNC(=N)NC(=N)NCCCCCCNC(=N)NC(=N)NCC(CC)CC,NCI-H1299,cell growth or viability,72 h,3
COc1cccc(/C=N/Nc2nc(Nc3ccccc3)nc(-n3nc(C)cc3C)n2)c1O,LDR,"cell viability, MTS",4 days,1
COC(=O)[C@H]1[C@H]2C[C@H]3O[C@@]4(CCN3C[C@H]2C[C@@H](OC(=O)c2cc(OC)c(OC)c(OC)c2)[C@@H]1OC)C(=O)Nc1cc(OC)c(-c2ccccc2)cc14,CAPAN-1,"cell growth or viability, crystal violet",72 h,61.9
COC(=O)CCC(=O)[O][Pt-2]1([Cl])([Cl])([O]C)[NH2+]CC[N+]1(C)C,CH1,"cell growth or viability, MTT",96 h,1.5
N=C(N/N=C/c1cc(C(F)(F)F)cc(C(F)(F)F)c1)N/N=C/c1cc(C(F)(F)F)cc(C(F)(F)F)c1,IMR-90,"cell growth or viability, crystal violet",72 h,197
CO[C@@H]1[C@@H](O[C@@H]2O[C@H](C)[C@@H](O[C@H]3C[C@@](C)(O)[C@@H](OC(=O)CN(C)C)[C@H](C)O3)[C@H](N(C)C)[C@H]2O)[C@@H](CC=O)C[C@@H](C)[C@@H](O[C@H]2CC[C@H](N(C)C)[C@@H](C)O2)/C=C/C=C/C[C@@H](C)OC(=O)C[C@H]1O,HGC-27,"cell growth or viability, CCK-8",72 h,> 50
CCC(C(=O)O)C1CCC(C)C(C(C)C(O)C(C)C(=O)C(CC)C2OC3(C=CC(NCc4cn(CCCO)nn4)C4(CCC(C)(C5CCC(O)(CC)C(C)O5)O4)O3)C(C)CC2C)O1 (stereo not drawn),HMLER CD24high/CD44low,"cell viability, CellTiter-Blue",72 h,23.7 ± 0.9
CCc1nnc(NC(=O)c2cccc(C(=O)Nc3nnc(CC)s3)n2)s1,HCC4017,"cell growth or viability, MTS",96 h,> 50
Cl.[Cl][Ru-]1[S+]=C(N2CCCC2)N[N+]1=Cc1ccc(N(c2ccc(-c3ccsc3)cc2)c2ccc(-c3ccsc3)cc2)cc1.c1ccccc1,IMR-90,"cell viability, MTT",24 h,> 100

# Excerpt of the above:
Compound,cell line,test,setting,IC50 [µM]
C[C@]12CC/C(=N\OCCN3CCCC3)C=C1CCC1C2CC[C@]2(C)/C(=C/c3ccccn3)CCC12 (stereo partly drawn),G-361,"cell growth or viability, resazurin",72 h,8.9
CCC(CC)CNC(=N)NC(=N)NCCCCCCNC(=N)NC(=N)NCC(CC)CC,NCI-H1299,cell growth or viability,72 h,3
